Experimental data pooled from the literature.
Each line is one published result; not all experiments were run side by side. “And” joins repeats or separate records; there may be more than shown. ± marks the error that the study gave.
Chain of UniProt P34947 (whole entry, looked up): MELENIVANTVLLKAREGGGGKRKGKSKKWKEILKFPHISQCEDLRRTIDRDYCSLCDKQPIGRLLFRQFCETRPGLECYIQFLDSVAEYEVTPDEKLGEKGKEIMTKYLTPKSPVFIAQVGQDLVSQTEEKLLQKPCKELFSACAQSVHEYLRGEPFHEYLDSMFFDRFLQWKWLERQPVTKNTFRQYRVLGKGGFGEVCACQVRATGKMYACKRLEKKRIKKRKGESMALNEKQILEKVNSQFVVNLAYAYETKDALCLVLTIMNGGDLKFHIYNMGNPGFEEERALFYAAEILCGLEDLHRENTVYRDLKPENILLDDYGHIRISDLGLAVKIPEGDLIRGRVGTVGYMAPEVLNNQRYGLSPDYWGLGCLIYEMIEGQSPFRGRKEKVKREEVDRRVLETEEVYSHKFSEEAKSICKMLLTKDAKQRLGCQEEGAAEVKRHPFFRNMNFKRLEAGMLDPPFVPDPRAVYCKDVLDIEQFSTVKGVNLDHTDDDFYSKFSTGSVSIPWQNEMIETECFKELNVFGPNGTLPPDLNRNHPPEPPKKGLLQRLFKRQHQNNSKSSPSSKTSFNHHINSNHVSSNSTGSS
Chain of UniProt P21917 (whole entry, looked up): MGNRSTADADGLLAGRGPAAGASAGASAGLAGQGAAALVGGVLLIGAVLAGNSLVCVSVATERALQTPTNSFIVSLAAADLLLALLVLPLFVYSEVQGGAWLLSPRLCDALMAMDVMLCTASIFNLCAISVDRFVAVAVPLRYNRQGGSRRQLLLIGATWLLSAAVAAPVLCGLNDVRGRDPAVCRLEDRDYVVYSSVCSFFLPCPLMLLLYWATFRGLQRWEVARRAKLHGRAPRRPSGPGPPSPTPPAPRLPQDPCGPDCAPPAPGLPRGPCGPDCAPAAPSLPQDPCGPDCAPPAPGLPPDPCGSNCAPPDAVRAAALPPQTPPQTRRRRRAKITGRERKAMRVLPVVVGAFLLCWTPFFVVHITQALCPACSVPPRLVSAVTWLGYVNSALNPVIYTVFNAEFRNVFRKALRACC

CCCC[C@H](NC(=O)CCCCCCCNC(=O)CN1CCN(CC(=O)O)CCN(CC(=O)O)CC1)C(=O)N[C@H]1CC(=O)NCCCC[C@@H](C(N)=O)NC(=O)[C@H](Cc2c[nH]c3ccccc23)NC(=O)[C@H](CCCNC(=N)N)NC(=O)[C@@H](Cc2ccccc2)NC(=O)[C@H](Cc2c[nH]cn2)NC1=O [technetium-99m labelled]  tissue uptake (C57 mouse, tumor; intravenous, 0.037 MBq, 4 h): 5.89 ± 1.71 %ID/g
CN(C)CCN1CCN(c2ccc3nc(-c4ccc5nc(-c6ccc(C(F)(F)F)cc6)[nH]c5c4)[nH]c3c2)CC1  growth percent (UACC-62; SRB; 10 µM, 48 h): 44.8%
COc1cc(N2CCN(C(=O)C3CCCN3)CC2)ccc1Nc1ncc(Cl)c(Nc2ccccc2P(C)(C)=O)n1 (centres unmarked)  late apoptotic cells (Ba/F3 EML4-ALK; flow cytometry; concentration not given, 0.5 h): 2.6% and 2.79% and 2.71%
CC[C@H](CO)Nc1nc(NCc2ccc(-c3ccccn3)cc2)c2ncn(C(C)C)c2n1  log2 fold change (MOLT-4; tandem mass tag proteomics, item: P11926; 1 µM, 1 h; relative to: DMSO): -2.42
O=C(CCCCCOc1ccc2ccccc2c1)N[C@@H](CO)C[C@@H](O)c1ccc(-c2ccccc2)cc1  lactosylceramide level (HeLa; CERT activity, HPLC-MS/MS lipidomics, item: lactosylceramide 24:1; 1 µM, 24 h, not cell-number normalised): 6300 pmol/sample and 8020 pmol/sample and 8050 pmol/sample
O=C1NC2(CC2)COc2ncc(F)cc2[C@H]2COCCN2c2ccn3ncc1c3n2  structural aberrations with gaps (CHL; 300 µg/mL, 4 h, with rat liver S9): 0.3%
Nc1ncc(-c2cc(-c3cnn(CC(F)(F)F)c3)ncc2F)nc1C(=O)NC1CNCC(F)C1 (centres unmarked)  remaining binding (SBK1; KINOMEscan; 1 µM; relative to: DMSO control): 66%
CC(C)C[C@@H](NC(=O)[C@@H](CC(C)C)NC(=O)[C@@H](CC(=O)O)NC(=O)[C@@H](CC(C)C)NC(=O)[C@@H](CC(C)C)NC(=O)[C@@H](CC(C)C)NC(=O)[C@H](NC(=O)[C@@H](CC(=O)O)NC(=O)[C@H](NC(=O)[C@H]1CCCN1C(=O)[C@@H](Cc1ccccc1)NC(=O)[C@@H](CC(C)C)NC(=O)[C@@H](CC(C)C)NC(=O)[C@@H](CC(=O)O)NC(=O)[C@@H](CC(C)C)NC(=O)[C@@H](Cc1ccc(O)cc1)NC(=O)[C@@H](C)NC(=O)[C@@H](CCCNC(=N)N)NC(=O)[C@@H](Cc1c[nH]c2ccccc12)NC(=O)[C@H]1CCCN1C(=O)[C@@H](CC(N)=O)NC(=O)[C@@H](CCC(N)=O)NC(=O)[C@@H](CC(=O)O)NC(=O)[C@@H](CC(=O)O)NC(=O)[C@@H](CSC1CC(=O)N(CCNC(=O)CN2CCN(CC(=O)O)CCN(CC(=O)O)CC2)C1=O)NC(=O)[C@@H](C)N)[C@H](C)O)[C@H](C)O)C(=O)N[C@H](Cc1c[nH]c2ccccc12)C(=O)O (some centres unmarked) [fluorine-18 labelled]  tissue uptake (male nude mice, LNCaP xenograft, tumor; intravenous, 4 h): 4.41 %ID/g
CCCC[C@H](NC(=O)COCCOCCNC(=O)CN1CCN(CC(=O)O)CCN(CC(=O)O)CC1)C(=O)N[C@H]1CC(=O)NCCCC[C@@H](C(N)=O)NC(=O)[C@H](Cc2c[nH]c3ccccc23)NC(=O)[C@H](CCCNC(=N)N)NC(=O)[C@@H](Cc2ccccc2)NC(=O)[C@H](Cc2c[nH]cn2)NC1=O [technetium-99m labelled]  tissue uptake (C57 mouse, intestine; intravenous, 0.037 MBq, 2 h): 4.51 ± 0.93 %ID
CC1(C)C[C@@H](Nc2cccc(-c3sc(C(=O)O)c(OCC(=O)O)c3Cl)c2)CCN1S(=O)(=O)Cc1cccc(NC(=O)CN2CCC(c3ccc4c(c3)oc(=O)n4C3CCC(=O)NC3=O)CC2)c1 (some centres unmarked)  fold change (B16-F10; HTRF, item: phospho-STAT1 Tyr701; 0.014 µM, with: IFN-γ; relative to: DMSO): 1.09 and 1.1 and 1.15 and 1.11
CC(C)C[C@H](NC(=O)[C@H](Cc1ccc(O)cc1)NC(=O)[C@@H](CCCNC(=N)N)NC(=O)[C@@H](CO)NC(=O)[C@H](Cc1ccccc1)NC(=O)[C@H](CC1CCCCC1)NC(=O)[C@H](CC(=O)O)NC(=O)CN1CCN(CC(=O)O)CCN(CC(=O)O)CCN(CC(=O)O)CC1)C(=O)N[C@@H](Cc1c[nH]c2ccccc12)C(=O)N[C@@H](CO)C(=O)O [copper-64 labelled]  activity concentration (human, urinary bladder; concentration not given, 1 h): 74400 Bq/mL and 74700 Bq/mL and 143000 Bq/mL and 41100 Bq/mL and 29400 Bq/mL and 124000 Bq/mL
C=CC(=O)Nc1cccc(Cn2ncc3cnc(Nc4cnn(CCOC)c4)nc32)c1  percent of control (GAK human; binding, KINOMEscan; 100 nM; lower = stronger binding): 95%
Cc1c(Cl)cccc1Nc1ccccc1C(=O)[Se]CC(=O)Nc1cccc(C(F)(F)F)c1  mean growth percent (NCI60 ovarian subpanel; cell growth; 10 µM, 48 h, one-dose): -76.4%
CCN(C(=O)c1cc(F)ccc1Oc1nncnc1N1CCC2(C1)CN([C@H](CCCN(C)CCOC)C(C)C)C2)C(C)C  GI50 (SF-295; brain; 72 h): > 10000 nM
Cc1[nH]c(=S)[nH]c(=O)c1/N=N/c1nnc(S)s1  inhibition (Vero; cell viability, MTT; 1.25 µg/mL): 15.4 ± 1.42%
NCCOc1cc(NC(=O)c2cc(Cl)cc(C(=O)Nc3cc(OCCN)c4ccccc4n3)n2)nc2ccccc12  selectivity ratio (U2OS; cell viability, CellTiter-Glo; 72 h; relative to: IC50 U2OS over WI-38): 2
Cc1ncsc1-c1ccc(C(C)NC(=O)C2CC(O)CN2C(=O)C(NC(=O)CCCCCCCCCCN2CCCC(Nc3ncc(Cl)c(Nc4ccccc4S(=O)(=O)C(C)C)n3)C2)C(C)(C)C)cc1 (centres unmarked)  log2 fold change (22Rv1; RNA-seq, item: PIP4P1 mRNA; concentration not given; relative to: DMSO): -1.12
C=CC(=O)N1[C@@H](c2ccc3c(c2)OCO3)c2[nH]c3ccccc3c2C[C@H]1C(=O)NC1CC1  neuron degeneration (rat DRG neurons; 3.333 µM, 48 h, with: vincristine 40 nM): 37.5% and 46.8%
CN1CCCNC(=O)c2cccc(c2)C(=O)NCCCN(C)CCCNc2cccc3c2C(=O)c2cccc(c2C3=O)NCCC1  log2 fold change (SAS; RNA-Seq, item: NPIPB2 mRNA; 1 µM, 6 h; relative to: untreated cells): 3.41
CNS(=O)(=O)Nc1nccc(Cc2c(C)c3ccc(Oc4ncccc4F)cc3oc2=O)c1F  IC50 (SNU-1040; cell viability, CellTiter-Glo; 7 days): > 1000 nM
COC1CN([C@H]2CC[C@H]([C@@]3(C)Oc4c(Cl)cc(C(=O)NCc5c(SC)cc(C)[nH]c5=O)c(C)c4O3)CC2)C1  log2 fold change (RNA-seq, item: WNK2 mouse homolog; mouse, HT-1376 xenograft, whole blood; dose not given; relative to: vehicle): 0.408
Cc1ccc(-n2cc(CSc3nc4ccccc4n3Cc3cn(-c4ccc(C)cc4)nn3)nn2)cc1  cytotoxicity (Caco-2; MTT; 125 ppm): 87.7%
O=C(C[Se]C(=O)c1cc2ccccc2[nH]1)Nc1cccc(C(F)(F)F)c1  mean growth percent (NCI60 non-small-cell lung subpanel; cell growth; 10 µM, 48 h, one-dose): -84.2%
C=CC(=O)N1CCCC(n2c(=O)c3ncccc3n(Cc3ccc(Oc4ccccc4)cc3)c2=O)C1 (centres unmarked)  log2 fold change (Rec1; item: JUN; concentration not given; relative to: untreated): 1.05
C=C1CC[C@H](OCCCNC(=O)CCOCCOCCOCCOCCOCCOCCOCCOCCOCCOCCOCCOCCOCCOCCOCCOCCOCCOCCOCCOCCOCCOCCOCCOCCOCCOCCOCCOCCOCCOCCOCCOCCOCCOCCOCCOCCNC(=O)CCN2C(=O)CC(SC[C@H](NC(=O)[C@H](Cc3ccccc3)NC(=O)[C@H](CC(N)=O)NC(=O)[C@H](Cc3c[nH]cn3)NC(=O)[C@@H](NC(=O)[C@H](CC(=O)O)NC(=O)[C@H](CCC(N)=O)NC(=O)[C@H](CC(C)C)NC(=O)[C@H](CCCCN)NC(=O)[C@H](CCCCN)NC(=O)[C@H](CCCNC(=N)N)NC(=O)[C@H](CC(C)C)NC(=O)[C@H](Cc3c[nH]c4ccccc34)NC(=O)[C@H](CCC(=O)O)NC(=O)[C@@H](NC(=O)[C@H](CCCNC(=N)N)NC(=O)[C@H](CCC(=O)O)NC(=O)[C@H](CCSC)NC(=O)[C@H](CO)NC(=O)[C@H](CC(N)=O)NC(=O)[C@H](CC(C)C)NC(=O)[C@H](Cc3c[nH]cn3)NC(=O)[C@H](CCCCN)NC(=O)CNC(=O)[C@H](CC(C)C)NC(=O)[C@H](CC(N)=O)NC(=O)[C@H](Cc3c[nH]cn3)NC(=O)[C@H](CCSC)NC(=O)[C@H](CC(C)C)NC(=O)[C@H](CCC(N)=O)NC(=O)[C@@H](NC(=O)[C@H](CCC(=O)O)NC(=O)[C@H](CO)NC(=O)[C@@H](NC(=O)[C@@H](N)CO)C(C)C)[C@@H](C)CC)C(C)C)C(C)C)C(=O)O)C2=O)C/C1=C/C=C1\CCC[C@]2(C)[C@@H]([C@H](C)CCCC(C)(C)O)CC[C@@H]12 (some centres unmarked)  Cmax (male Sprague-Dawley rat, plasma; subcutaneous, 300 µg/kg, single dose): 109 ng/mL
CCN(CC)CC(=O)Nc1cccc(-n2cc(-c3ccc4ccc(-c5cn(-c6cccc(NC(=O)CN(CC)CC)c6)nn5)cc4c3)nn2)c1  fold regulation (RCC4; PCR angiogenesis array, item: CXCL6; 5 x IC50, 4 h, normoxia; relative to: untreated): -1.36
CCOc1cncc(-c2ccc(NC(=O)C3(c4ccnc(NS(=O)(=O)C5CC5)n4)CCOCC3)nc2)n1  IC50 (MEG-01; cell proliferation, CellTiter-Glo; 72 h): 1270 nM
Cc1ccc([N+](=O)[O-])cc1S(=O)(=O)N(C)/N=C/c1cnc2ccc(Br)cn12  annexin V+/PI+ cells (HuT78; 200 nM): 25.5%
COc1ccccc1-c1ccncc1C(=O)Nc1nnc(OCc2ccc(Cl)cc2)s1  colony survival (PEO1 BRCA2-mutant; 1.00 µM, with: olaparib 0 µM; relative to: vehicle control): 49.5%
C=C(NC(=O)c1csc(-c2nc3c(cc2O)-c2nc(cs2)C(=O)NC(C(C)O)C(=O)NC(=C(C)OC)c2nc(cs2)C(=O)NC2c4nc(cs4)C(=O)NC(COC(=O)c4c5c6c(cccc6n4O)COC(=O)C(OC4CC(C)(O)C(N(C)C)C(C)O4)C2OC5)c2nc-3cs2)n1)C(N)=O (centres unmarked)  Cmax (ICR mice, Streptococcus pneumoniae ATCC 49169 infected, immunocompromised, blood; intravenous, 16 mg/kg/day twice daily): 663 ng/mL
Cn1ncc2cc(CN3CCC(F)(F)C(COc4ccc(F)cc4)C3)ccc21 (centres unmarked)  Ki (DRD4 (Homo sapiens, UniProt P21917); binding, radioligand displacement; HEK293 cell membranes; WuXi AppTec, with: [3H]N-methylspiperone): 1 nM
O=CCNCCOn1c(=O)n(OCCNCCO)c(=O)n(OCCNCCOn2c(=O)n(OCCNCCO)c(=O)n(OCCNCCO)c2=O)c1=O  viability (A549; cell growth or viability, MTT; 25 µg/mL, 24 h): 48.4%
O=C(C[Se]C(=O)c1cccnc1Nc1cccc(C(F)(F)F)c1)Nc1cccc(C(F)(F)F)c1  mean growth percent (NCI60 ovarian subpanel; cell growth; 10 µM, 48 h, one-dose): -84.2%
COc1cc([C@@H]2O[C@@H](c3cc(OC)c(O[C@@H]4O[C@H](CO)[C@@H](O)[C@H](O)[C@H]4O)c(OC)c3)[C@H](CO)[C@H]2CO)cc(OC)c1O  glycerol release (human pre-adipocytes PCS-210-010; 5 to 20 µM, 48 h): increased
CC(C)c1ccc(N(C)c2ccc3c(c2)OCC[C@H]3CNc2cnccc2C(=O)O)cc1  IC50 (REH; cell growth or viability, ATP luminescence; 7 days): 1.21 nM
Cc1nn(-c2cccc(N)c2)c(=O)c2cnc(Nc3ccc(N4CCNCC4)cc3)nc12  IC50 (GRK5 (Homo sapiens, UniProt P34947); enzyme activity, inhibitor): > 10000 nM
O=C(C[Se]C(=O)c1ccccc1Nc1ccccc1)Nc1cccc(C(F)(F)F)c1  mean growth percent (NCI60 non-small-cell lung subpanel; cell growth; 10 µM, 48 h, one-dose): -81.9%
CO[C@@H]1[C@@H](OC(N)=O)[C@@H](O)[C@H](Oc2ccc3c(O)c(NC(=O)c4ccc(O)c(CC=C(C)C)c4)c(=O)oc3c2C)OC1(C)C  colony count (DLD-1 parental; 75 µM, replicate 1): 58.5
Cc1[nH]c(=S)[nH]c(=O)c1/N=N/c1nnc(S)[nH]1  inhibition (Vero; cell viability, MTT; 2.5 µg/mL): 15.3 ± 1.49%
CC(=O)Oc1ccccc1C(=O)[Se]CC(=O)Nc1cccc(C(F)(F)F)c1  mean growth percent (NCI60 non-small-cell lung subpanel; cell growth; 10 µM, 48 h, one-dose): -46.2%
COC(=O)c1cc(NC2=NC(=O)C(=Cc3ccc(N(C)C)cc3)S2)ccc1OC(C)=O  fold change (MCF7; item: MCM6 mRNA; 0.81 µM (IC50), 24 h; relative to: DMSO): 0.419
Cn1ncc2cc(-c3cncc(Cl)c3N3CCC4(CCNC4=O)CC3)ccc21  fold change in expression (LS174T; microarray, item: ADA; concentration not given, 24 h; relative to: untreated cells): 2.01
O=C(C[Se]C(=O)c1ccc2ccccc2n1)Nc1cccc(C(F)(F)F)c1  mean growth percent (NCI60 ovarian subpanel; cell growth; 10 µM, 48 h, one-dose): -86.8%
C1=[N+]2CCCC[N+]3=Cc4ccc5[n]4[Au-]23[n]2c1ccc2-c1nc2ccccc2nc1-5.F[P-](F)(F)(F)(F)F  TGI (SF-539; NCI60 five-dose screen): 5.37 -log M
